Assay results collected from several papers.
Values joined by “and” are separate records of one study, mostly repeats; a detail may differ. Numbers after ± are the reported error. Values after ≈ are worked out from the molar mass of the structure shown.

`CC1(C(=O)O)C2CCC(O2)C1(C)C(=O)O` (stereo not drawn) gave an IC50 of 2.51 µM (Plasmodium falciparum; HB3).
Under “log2 fold change”, `CC[C@H](C)[C@@H]1NC(=O)[C@@H]2CCCN2C(=O)[C@H](CC(C)C)NC(=O)[C@H](CC(C)C)NC(=O)CNC(=O)[C@@H](NC(=O)[C@@H](NC(=O)[C@H](CC(=O)O)NC(=O)CNC(=O)[C@@H](NC(=O)[C@H](C)NC(=O)CNC(=O)[C@H](CCCCN)NC(=O)[C@H](CC(C)C)NC(=O)[C@H](CC(C)C)NC(=O)[C@H](CCCCN)NC(=O)CNC(=O)[C@@H](NC(=O)[C@@H](N)CC(C)C)C(C)C)C(C)C)C(C)C)CSSC[C@@H](C(=O)O)NC1=O` is recorded as -2.9 (RNA-seq, item: mt-Nd3 mRNA; mouse traumatic brain injury, frontal cortex and hippocampus; dose not given; reference: TBI plus compound vs TBI).
With `CCCCC1(CCCC)CN(c2ccccc2)c2cc(SC)c(OCC(=O)N[C@@H](C(=O)NCC(=O)O)c3ccccc3)cc2S(=O)(=O)C1` the serum HDL-C was 48.4 mg/dL (item: HDL cholesterol; human, serum; 5 mg once daily, day 2).
For `C[C@H]1O[C@@H](O[C@H]2CC[C@@]3(C)[C@@H](CC[C@]4(C)[C@@H]3C=C[C@]35OC[C@@]6(CCC(C)(C)C[C@H]63)[C@@H](O)C[C@]54C)[C@]2(C)CO)[C@H](O)[C@@H](O[C@@H]2O[C@H](CO)[C@@H](O)[C@H](O)[C@H]2O)[C@H]1O`, “body weight change” read -0.7 g and -0.2 g and -0.9 g and -0.5 g and 0 g and -1.4 g (mouse, ethanol-fed, hepatic SIRT1 knockdown; dose not given, high dose, during treatment).
The Vmax/Km of `Oc1c(Br)cc(Br)cc1Oc1ccc(Br)cc1Br` is reported as 179 ± 29.6 µL/min/mg (sulfonation; human liver cytosol).
`COc1cc(Nc2ncc(F)c(Nc3ccc4c(n3)NC(=O)C(C)(C)O4)n2)cc(OC)c1OC` has an IC50 of > 10 µM (AGTR1 (Homo sapiens, UniProt P30556)).
`CC1=C(C)C(=O)C(CCCCC#CCCCC#CCO)=C(C)C1=O` gave an IC50 of 10 µM (Plasmodium falciparum; HB3).
Under “log2 fold change”, `Nc1ncnc2c1ncn2[C@@H]1O[C@H](COP(=O)(O)OS(=O)(=O)O)[C@@H](O)[C@H]1O` is recorded as -0.155 (binding, MIDAS equilibrium dialysis LC-MS; A2AR-BRIL thermostabilized; concentration not given; reference: no-protein control).
The MIC of `N=C(N)NCCC[C@H](NC(=O)CCCCCNC(=O)[C@H](CCCNC(=N)N)NC(=O)[C@H](CCCNC(=N)N)NC(=O)CCCCCNC(=O)[C@H](CCCNC(=N)N)NC(=O)[C@H](CCCNC(=N)N)NC(=O)CCCCCNC(=O)[C@H](CCCNC(=N)N)NC(=O)[C@H](CCCNC(=N)N)NC(=O)CCCCCNC(=O)[C@@H](N)CCCNC(=N)N)C(=O)NCCCCCC(=O)NCCC(=O)O` is reported as 96 µM (≈ 183 µg/mL) (broth microdilution; BAA-2469, NDM-1 producing, Mueller-Hinton broth).
`Clc1cc2c(cc1Cl)Oc1cc(Cl)c(Cl)cc1O2` has an LTC4 level of 1.3 fold (female Sprague-Dawley rat, liver; dose not given; reference: vehicle).
`[131I-].[Na+]`: “biochemical incomplete response” 13.3% (ATA response criteria; human, papillary thyroid cancer, nodal metastases; 3700 MBq).
`C[C@H]1CN(c2n[nH]c3nc(N[C@H]4CC[C@H](NS(=O)(=O)CCC(F)(F)F)CC4)ncc23)CCO1` has a remaining binding of 1.01 (Delta(3,5)-Delta(2,4)-dienoyl-CoA isomerase, mitochondrial (Homo sapiens, UniProt Q13011); Kinobeads competition, item: ECH1; 0.16 µM, unit not given; reference: vehicle).

Some of these lines once more:
Under “log2 fold change”, `Nc1ncnc2c1ncn2[C@@H]1O[C@H](COP(=O)(O)OS(=O)(=O)O)[C@@H](O)[C@H]1O` is recorded as -0.155 (binding, MIDAS equilibrium dialysis LC-MS; A2AR-BRIL thermostabilized; concentration not given; reference: no-protein control).
The MIC of `N=C(N)NCCC[C@H](NC(=O)CCCCCNC(=O)[C@H](CCCNC(=N)N)NC(=O)[C@H](CCCNC(=N)N)NC(=O)CCCCCNC(=O)[C@H](CCCNC(=N)N)NC(=O)[C@H](CCCNC(=N)N)NC(=O)CCCCCNC(=O)[C@H](CCCNC(=N)N)NC(=O)[C@H](CCCNC(=N)N)NC(=O)CCCCCNC(=O)[C@@H](N)CCCNC(=N)N)C(=O)NCCCCCC(=O)NCCC(=O)O` is reported as 96 µM (≈ 183 µg/mL) (broth microdilution; BAA-2469, NDM-1 producing, Mueller-Hinton broth).
